# Results pooled from the literature.
# Compare with care: the assays were run in different laboratories. Numbers after ± are the reported error.
# Cell line: HeLa
SMILES,read-out,technique,time,notes,IC50
Clc1ccnc2c1ccc1c(Cl)ccnc12.[Co+2].[O-]c1c(Br)cc(Br)c2cccnc12.[O-]c1c(Br)cc(Br)c2cccnc12,cell growth or viability,MTT,48 h,,9.22 µM
O=C1CS/C(=N\N=C\c2cccc3cc4ccccc4nc23)N1c1ccc(F)cc1,cell growth or viability,MTT,48 h,,11.9 µM
Cc1ccc2c(Br)cc(Br)c([O-])c2n1.Cc1ccc2c(Br)cc(Br)c([O-])c2n1.[Co+2].c1ccc(-c2ccccn2)nc1,cell growth or viability,MTT,48 h,,7.21 µM
NC(=O)c1cc2c3ccccc3ccn2c1-c1ccccc1,microtubule binding,PB-GABA-Taxol competition,,,< 1 µM
CCCC[N+]1=c2cc3c4cc2[O][Mn-2]1(=[C]=O)(=[C]=O)(=[C]=O)[n+]1ccc(cc1)C(=O)NCCNC(=O)c1cc[n+](cc1)[Mn-2](=[C]=O)(=[C]=O)(=[C]=O)([O]3)[N+]=4CCCC,cell growth,MTT,48 h,LED photolysed 1 h,0.98 ± 0.38 µM
O=c1[nH]c(=O)n([C@@H]2O[C@H](CO)[C@@H](O)[C@H]2O)cc1F,cell growth or viability,,,,3.46 µM
C[C@@H]1CC[C@@H]([C@](O)(COCc2ccccc2)Cn2cnc3ccccc32)[C@H](OCc2ccccc2)C1,cell growth or viability,MTT,72 h,,3.98 µM
Nc1nc(=O)n([C@@H]2O[C@H](CO)[C@@H](O)[C@H]2O)cc1F,cell growth or viability,,,,1.11 µM
CCC(=CCc1c(O)cc2c(c1O)C(=O)CC(c1cccc(OC)c1O)O2)CC (stereo not drawn),cytotoxicity,MTT,48 h,,25.8 ± 3.6 µM
CCOC(=O)/C=C1\S/C(=N\N=C\c2cccc3cc4ccccc4nc23)N(c2ccc(F)cc2)C1=O,cell growth or viability,MTT,48 h,,15.9 µM
CCCCCCC(=O)[O][Pt]([NH2])([NH2])([Cl])([Cl])[O]C(=O)CCC(C)C1CCC2C3CCC4CC(O)CCC4(C)C3CCC12C (stereo not drawn),cell growth or viability,MTT,72 h,,1.1 µM
CC(=O)NCCOCCNC(=O)c1cc(C(=O)N2CCNCCNCCNCC2)c(O)c(C(=O)N2CCNCCNCCNCC2)c1,cell growth or viability,MTT,24 h,,> 1000 µM
Cc1c(C)c2cccnc2c2ncccc12.Cc1ccc2c(Cl)cc(Cl)c([O-])c2n1.Cc1ccc2c(Cl)cc(Cl)c([O-])c2n1.[Co+2],cell growth or viability,MTT,48 h,,0.59 µM
O=C(/C=C/c1ccccc1)Nc1cc(-c2ccnc(N3CCC(CO)CC3)c2)ccn1,cell growth or viability,MTT,72 h,,0.0664 µM
CCOC(=O)/C=C1\S/C(=N\N=C\c2cccc3cc4ccccc4nc23)N(C)C1=O,cell growth or viability,MTT,48 h,,18.8 µM
COc1ccc(CNC[C@@](O)(COCc2ccc(F)cc2)[C@@H]2CC[C@@H](C)C[C@H]2OCc2ccc(F)cc2)cc1,cell growth or viability,MTT,72 h,,1.58 µM
CCC(=CCc1c(O)cc2c(c1O)C(=O)CC(c1c(O)cccc1OC)O2)CC (stereo not drawn),cell growth or viability,MTT,48 h,,> 100 µM
Cc1c(COc2cc(OCc3cccc(C#N)c3)c(CNC(CO)(CO)CO)cc2Cl)cccc1-c1cccc(OCCCCCC(=O)NO)c1,cell growth or viability,CCK-8,48 h,,4.27 µM

# For quick reference, copied from above:
SMILES,read-out,technique,time,notes,IC50
Cc1ccc2c(Br)cc(Br)c([O-])c2n1.Cc1ccc2c(Br)cc(Br)c([O-])c2n1.[Co+2].c1ccc(-c2ccccn2)nc1,cell growth or viability,MTT,48 h,,7.21 µM
